Measurements gathered from unrelated publications.
Compare with care: the assays were run in different laboratories. Numbers after ± are the reported error.
Target: Mu-type opioid receptor (Oprm1, Rattus norvegicus, UniProt P33535)
UniProt P33535, sequence (whole entry, looked up): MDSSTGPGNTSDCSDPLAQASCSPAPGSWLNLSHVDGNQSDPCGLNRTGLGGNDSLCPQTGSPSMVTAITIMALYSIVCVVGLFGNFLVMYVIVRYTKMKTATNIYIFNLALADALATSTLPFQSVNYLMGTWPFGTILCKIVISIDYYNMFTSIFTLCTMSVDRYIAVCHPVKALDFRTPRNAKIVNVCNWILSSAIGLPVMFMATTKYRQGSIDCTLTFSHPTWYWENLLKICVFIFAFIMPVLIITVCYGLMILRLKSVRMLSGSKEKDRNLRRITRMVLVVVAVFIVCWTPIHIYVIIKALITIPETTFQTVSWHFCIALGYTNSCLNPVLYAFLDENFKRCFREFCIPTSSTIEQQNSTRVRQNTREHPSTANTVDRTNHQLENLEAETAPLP

Cc1cc(O)cc(C)c1CC(N)C(=O)NC1CCNc2c(C)cc(Cc3ccccc3)cc21 (stereo not shown)  efficacy (agonist; C6 cells expressing MOR; baseline: DAMGO at 10 µM): 91%
NC(=O)[C@H](CO)NC(=O)[C@@H]1CCCN1C(=O)[C@H](Cc1ccc(O)cc1)NC(=O)CNC(=O)[C@H](Cc1ccccc1)NC(=O)[C@@H](CCCN=C=S)NC(=O)[C@@H](N)Cc1ccc(O)cc1  inhibition ([3H]DAMGO binding, wash-resistant binding; about IC50): 40 ± 8%
Cc1cc(O)cc(C)c1CC(N)C(=O)NC1CCNc2ccc(Cc3ccc4ncccc4c3)cc21 (stereo not shown)  maximal stimulation (agonist; 10 µM; baseline: DAMGO): 34 ± 6%
CCCCC(=N)NCc1ccc2[nH]c3c(c2c1)CC1(O)C2Cc4ccc(O)c5c4C1(CCN2CC1CC1)C3O5 (stereo not shown)  Ke (antagonist; C6 cells expressing µ receptor; together with: DAMGO): 0.56 ± 0.26 nM
Cc1cc(O)cc(C)c1CC(N)C(=O)NC1CCNc2ccc(Cc3ccoc3)cc21 (stereo not shown)  maximal stimulation (agonist; 10 µM; baseline: DAMGO): 18 ± 2%
Cc1cc(O)cc(C)c1CC(N)C(=O)NC1CCNc2c(F)cc(Cc3ccccc3)cc21 (stereo not shown)  efficacy (agonist; C6 cells expressing MOR; baseline: DAMGO at 10 µM): 95%
CC(C)C[C@H](NC(=O)[C@H](Cc1ccc2ccccc2c1)NC(=O)CNC(=O)[C@H](NC(=O)[C@@H](N)Cc1ccc(O)cc1)[C@H](C)O)C(=O)N[C@@H](CO)C(N)=O  Emax (GTPγS binding, agonist, radiometric; cell membranes): 101%
Cc1cc(O)cc(C)c1CC(N)C(=O)NC1CCNc2ccc(Cc3ccc4c(c3)OCO4)cc21 (stereo not shown)  maximal stimulation (agonist; 10 µM; baseline: DAMGO): 36 ± 3%
Cc1cc(O)cc(C)c1C[C@H](N)C(=O)N[C@@H]1CSCCSC(C)(C)[C@H](C(N)=O)NC(=O)C2(Cc3ccccc3C2)NC1=O  maximal inhibition (cAMP production, inhibitor; C6 cells expressing mu opioid receptor; together with: forskolin): 76 ± 0.9%
Cc1cc(O)cc(C)c1C[C@H](N)C(=O)N[C@@H](C(=O)NCC(=O)N[C@@H](Cc1ccc2ccccc2c1)C(=O)N[C@@H](CC(C)C)C(=O)N[C@@H](CO)C(N)=O)[C@H](C)O  Emax (GTPγS binding, agonist, radiometric; cell membranes): 81%
CC(=O)N1CCC(NC(=O)C(N)Cc2c(C)cc(O)cc2C)c2cc(CN3CCc4ccccc4C3)ccc21 (stereo not shown)  maximal stimulation (agonist; 10 µM; baseline: DAMGO): 91 ± 8%
NC(=O)[C@H](CO)NC(=O)[C@@H]1CCCN1C(=O)[C@H](Cc1ccc(O)cc1)NC(=O)CNC(=O)[C@H](Cc1ccccc1)NC(=O)[C@@H](CCCCNC(=O)CBr)NC(=O)[C@@H](N)Cc1ccc(O)cc1  inhibition ([3H]DAMGO binding, wash-resistant binding; about IC50): 32 ± 1%
Cc1cc(O)cc(C)c1CC(N)C(=O)NC1CCNc2c(Br)cc(Cc3ccccc3)cc21 (stereo not shown)  efficacy (agonist; C6 cells expressing MOR; baseline: DAMGO at 10 µM): 73%
Cc1cc(O)cc(C)c1C[C@H](N)C(=O)N1Cc2ccccc2C[C@H]1C(=O)NCC(=O)NCc1ccccc1  maximal inhibition (cAMP production, inhibitor; C6 cells expressing mu opioid receptor; together with: forskolin): 30 ± 10%
CC(C)C[C@H](NC(=O)[C@H](Cc1cccc2ccccc12)NC(=O)CNC(=O)[C@H](NC(=O)[C@@H](N)Cc1ccc(O)cc1)[C@H](C)O)C(=O)N[C@@H](CO)C(N)=O  Emax (GTPγS binding, agonist, radiometric; cell membranes): 93%
Cc1cc(O)cc(C)c1CC(N)C(=O)NC1CCNc2c(CN3CCOCC3)cc(Cc3ccccc3)cc21 (stereo not shown)  efficacy (agonist; C6 cells expressing MOR; baseline: DAMGO at 10 µM): 96%
Cc1cc(O)cc(C)c1CC(N)C(=O)NC1CCNc2ccc(CN3CCCCC3)cc21 (stereo not shown)  maximal stimulation (agonist; 10 µM; baseline: DAMGO): 73 ± 8%
CCNC(=O)c1cc(Cc2ccccc2)cc2c1NCCC2NC(=O)C(N)Cc1c(C)cc(O)cc1C (stereo not shown)  efficacy (agonist; C6 cells expressing MOR; baseline: DAMGO at 10 µM): 56%
Cc1cc(O)cc(C)c1C[C@H](N)C(=O)N1Cc2ccccc2C[C@H]1CN[C@@H](Cc1ccccc1)C(=O)N[C@@H](Cc1ccccc1)C(N)=O  maximal stimulation (agonist; 10 µM; baseline: DAMGO 10 µM): 18 ± 1%
Cc1cc(O)cc(C)c1CC(N)C(=O)NC1CCNc2ccc(CN3CCCCCC3)cc21 (stereo not shown)  maximal stimulation (agonist; 10 µM; baseline: DAMGO): 52 ± 2%
Cc1cc(O)cc(C)c1CC(N)C(=O)NC1CCNc2c(CN3CCCCC3)cc(Cc3ccccc3)cc21 (stereo not shown)  efficacy (agonist; C6 cells expressing MOR; baseline: DAMGO at 10 µM): 93%
CCCC[C@@H]1NC(=O)[C@H](Cc2ccccc2)NC(=O)CNC(=O)[C@H](NC(=O)[C@@H](N)Cc2ccc(O)cc2)C(C)(C)SSC(C)(C)[C@H](C(=O)N[C@@H](Cc2c[nH]c3ccccc23)C(=O)NCc2cc(C(F)(F)F)cc(C(F)(F)F)c2)NC(=O)[C@@H]2CCCN2C1=O  Emax (GTPγS binding, agonist, radiometric; cell membranes): 26%

Excerpt of the above:
Cc1cc(O)cc(C)c1CC(N)C(=O)NC1CCNc2c(C)cc(Cc3ccccc3)cc21 (stereo not shown)  efficacy (agonist; C6 cells expressing MOR; baseline: DAMGO at 10 µM): 91%
Cc1cc(O)cc(C)c1CC(N)C(=O)NC1CCNc2ccc(CN3CCCCC3)cc21 (stereo not shown)  maximal stimulation (agonist; 10 µM; baseline: DAMGO): 73 ± 8%
CCCC[C@@H]1NC(=O)[C@H](Cc2ccccc2)NC(=O)CNC(=O)[C@H](NC(=O)[C@@H](N)Cc2ccc(O)cc2)C(C)(C)SSC(C)(C)[C@H](C(=O)N[C@@H](Cc2c[nH]c3ccccc23)C(=O)NCc2cc(C(F)(F)F)cc(C(F)(F)F)c2)NC(=O)[C@@H]2CCCN2C1=O  Emax (GTPγS binding, agonist, radiometric; cell membranes): 26%
